Assay results collected from several papers.
Lines come from different studies, so protocols differ. Several values in a cell are separate wells, animals, samples, runs or records. Numbers after ± are the reported error.
SRD5A1: 3-oxo-5-alpha-steroid 4-dehydrogenase 1 (SRD5A1, Homo sapiens, UniProt P18405)
UniProt P18405, sequence (whole entry, looked up): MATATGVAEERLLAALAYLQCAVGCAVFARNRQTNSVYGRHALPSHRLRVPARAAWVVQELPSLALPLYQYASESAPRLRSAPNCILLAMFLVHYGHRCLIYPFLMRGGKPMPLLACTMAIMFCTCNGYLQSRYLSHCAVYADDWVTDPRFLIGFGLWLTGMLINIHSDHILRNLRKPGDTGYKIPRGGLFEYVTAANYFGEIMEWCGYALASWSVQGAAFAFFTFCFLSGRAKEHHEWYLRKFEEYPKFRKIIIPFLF
SSTR2: Somatostatin receptor type 2 (SSTR2, Homo sapiens, UniProt P30874)
UniProt P30874, sequence (whole entry, looked up): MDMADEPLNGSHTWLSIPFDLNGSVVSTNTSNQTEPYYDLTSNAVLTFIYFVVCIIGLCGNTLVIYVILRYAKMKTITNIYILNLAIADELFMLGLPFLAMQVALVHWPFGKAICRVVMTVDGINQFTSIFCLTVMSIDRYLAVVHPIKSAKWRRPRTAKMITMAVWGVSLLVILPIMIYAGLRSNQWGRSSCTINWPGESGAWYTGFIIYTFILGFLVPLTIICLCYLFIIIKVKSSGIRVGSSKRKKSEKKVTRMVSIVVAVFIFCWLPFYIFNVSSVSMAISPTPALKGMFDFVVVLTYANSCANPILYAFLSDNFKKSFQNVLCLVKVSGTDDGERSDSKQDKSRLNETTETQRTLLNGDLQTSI
CTSB: Cathepsin B (CTSB, Homo sapiens, UniProt P07858)
JAK2: Tyrosine-protein kinase JAK2 (JAK2, Homo sapiens, UniProt O60674)
UniProt O60674, sequence (whole entry, looked up): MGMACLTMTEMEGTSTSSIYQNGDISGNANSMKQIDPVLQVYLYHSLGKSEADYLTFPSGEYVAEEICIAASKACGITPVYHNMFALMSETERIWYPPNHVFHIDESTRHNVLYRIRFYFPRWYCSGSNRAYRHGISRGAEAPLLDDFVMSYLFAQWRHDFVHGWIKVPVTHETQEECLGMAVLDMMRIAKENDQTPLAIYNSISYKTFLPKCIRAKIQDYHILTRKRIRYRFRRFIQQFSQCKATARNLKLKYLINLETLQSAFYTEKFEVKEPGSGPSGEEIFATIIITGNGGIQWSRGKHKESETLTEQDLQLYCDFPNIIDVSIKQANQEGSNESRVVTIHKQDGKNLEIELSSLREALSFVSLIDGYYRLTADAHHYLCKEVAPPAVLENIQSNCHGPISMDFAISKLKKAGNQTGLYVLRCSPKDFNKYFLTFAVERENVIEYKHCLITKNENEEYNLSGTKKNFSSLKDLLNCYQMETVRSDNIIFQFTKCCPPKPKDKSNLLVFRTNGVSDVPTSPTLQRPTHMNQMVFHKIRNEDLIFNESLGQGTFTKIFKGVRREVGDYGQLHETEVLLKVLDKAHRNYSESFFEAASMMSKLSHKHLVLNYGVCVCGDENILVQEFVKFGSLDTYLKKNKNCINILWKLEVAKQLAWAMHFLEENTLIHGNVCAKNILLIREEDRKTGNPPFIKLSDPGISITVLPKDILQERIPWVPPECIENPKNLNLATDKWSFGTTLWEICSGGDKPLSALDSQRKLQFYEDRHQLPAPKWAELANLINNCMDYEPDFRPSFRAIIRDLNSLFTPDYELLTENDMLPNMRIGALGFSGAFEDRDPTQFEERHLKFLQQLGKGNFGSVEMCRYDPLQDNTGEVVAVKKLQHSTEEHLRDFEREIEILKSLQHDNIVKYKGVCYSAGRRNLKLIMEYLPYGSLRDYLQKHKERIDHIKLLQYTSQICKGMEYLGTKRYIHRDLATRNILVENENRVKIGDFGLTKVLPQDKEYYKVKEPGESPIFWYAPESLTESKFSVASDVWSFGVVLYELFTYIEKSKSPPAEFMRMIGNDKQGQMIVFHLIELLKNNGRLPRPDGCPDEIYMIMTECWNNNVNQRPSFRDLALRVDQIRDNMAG
AGER: Advanced glycosylation end product-specific receptor (AGER, Homo sapiens, UniProt Q15109)
UniProt Q15109, sequence (whole entry, looked up): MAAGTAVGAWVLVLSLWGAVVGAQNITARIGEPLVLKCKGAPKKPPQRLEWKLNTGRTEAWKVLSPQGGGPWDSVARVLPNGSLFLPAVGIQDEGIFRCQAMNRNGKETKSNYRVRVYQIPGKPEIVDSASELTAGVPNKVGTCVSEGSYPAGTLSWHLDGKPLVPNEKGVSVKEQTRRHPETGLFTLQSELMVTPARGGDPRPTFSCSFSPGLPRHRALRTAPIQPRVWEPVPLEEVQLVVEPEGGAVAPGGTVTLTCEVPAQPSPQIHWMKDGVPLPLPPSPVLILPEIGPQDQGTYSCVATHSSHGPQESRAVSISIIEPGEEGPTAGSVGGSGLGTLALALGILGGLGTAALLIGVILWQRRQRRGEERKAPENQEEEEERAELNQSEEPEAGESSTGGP
SIRT2: NAD-dependent protein deacetylase sirtuin-2 (SIRT2, Homo sapiens, UniProt Q8IXJ6)
UniProt Q8IXJ6, sequence (whole entry, looked up): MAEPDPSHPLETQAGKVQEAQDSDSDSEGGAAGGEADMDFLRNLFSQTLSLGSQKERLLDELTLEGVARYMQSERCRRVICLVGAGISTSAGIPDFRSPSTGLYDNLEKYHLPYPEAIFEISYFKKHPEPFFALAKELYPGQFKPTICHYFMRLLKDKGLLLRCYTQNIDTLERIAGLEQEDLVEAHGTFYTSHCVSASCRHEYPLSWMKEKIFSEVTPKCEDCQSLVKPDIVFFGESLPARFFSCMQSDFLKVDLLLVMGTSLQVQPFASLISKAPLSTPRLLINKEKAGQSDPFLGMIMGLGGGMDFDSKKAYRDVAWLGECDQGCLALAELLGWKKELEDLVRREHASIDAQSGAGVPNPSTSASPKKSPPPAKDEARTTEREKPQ
DNMT3B with DNMT3L: DNA (cytosine-5)-methyltransferase 3B, with DNMT3L (DNMT3B, Homo sapiens, UniProt Q9UBC3)
DRD5: D(1B) dopamine receptor (DRD5, Homo sapiens, UniProt P21918)
UniProt P21918, sequence (whole entry, looked up): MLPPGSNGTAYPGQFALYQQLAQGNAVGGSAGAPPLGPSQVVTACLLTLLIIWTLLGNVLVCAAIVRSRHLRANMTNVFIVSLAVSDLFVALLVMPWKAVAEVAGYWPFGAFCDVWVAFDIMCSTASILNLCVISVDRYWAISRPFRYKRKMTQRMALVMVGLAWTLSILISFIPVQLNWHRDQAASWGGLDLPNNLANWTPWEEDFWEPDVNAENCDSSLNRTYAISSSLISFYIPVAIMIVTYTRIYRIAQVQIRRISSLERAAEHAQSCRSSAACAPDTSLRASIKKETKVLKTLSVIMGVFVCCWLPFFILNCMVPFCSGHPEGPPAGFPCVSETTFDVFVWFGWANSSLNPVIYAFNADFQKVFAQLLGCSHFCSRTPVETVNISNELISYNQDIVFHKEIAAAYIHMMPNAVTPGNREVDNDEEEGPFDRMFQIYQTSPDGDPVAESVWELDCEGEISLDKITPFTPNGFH
PRKAA2 with beta1 gamma2: 5'-AMP-activated protein kinase catalytic subunit alpha-2, with beta1 gamma2 (PRKAA2, Homo sapiens, UniProt P54646)
UniProt Q9UI10, sequence (whole entry, looked up): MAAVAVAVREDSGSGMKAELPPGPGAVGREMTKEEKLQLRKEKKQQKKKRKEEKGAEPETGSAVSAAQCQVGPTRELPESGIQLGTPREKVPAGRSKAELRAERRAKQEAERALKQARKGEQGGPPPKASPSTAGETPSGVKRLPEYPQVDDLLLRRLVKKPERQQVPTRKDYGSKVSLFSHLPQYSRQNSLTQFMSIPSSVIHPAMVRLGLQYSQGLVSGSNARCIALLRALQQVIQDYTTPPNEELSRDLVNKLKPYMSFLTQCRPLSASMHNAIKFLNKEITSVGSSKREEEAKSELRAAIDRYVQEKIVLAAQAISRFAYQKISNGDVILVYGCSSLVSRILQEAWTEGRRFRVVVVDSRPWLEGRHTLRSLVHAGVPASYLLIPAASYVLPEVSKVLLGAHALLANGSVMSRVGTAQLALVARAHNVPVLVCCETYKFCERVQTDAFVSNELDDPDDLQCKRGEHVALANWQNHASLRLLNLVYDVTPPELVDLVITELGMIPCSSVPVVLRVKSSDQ
UniProt Q63531, sequence (whole entry, looked up): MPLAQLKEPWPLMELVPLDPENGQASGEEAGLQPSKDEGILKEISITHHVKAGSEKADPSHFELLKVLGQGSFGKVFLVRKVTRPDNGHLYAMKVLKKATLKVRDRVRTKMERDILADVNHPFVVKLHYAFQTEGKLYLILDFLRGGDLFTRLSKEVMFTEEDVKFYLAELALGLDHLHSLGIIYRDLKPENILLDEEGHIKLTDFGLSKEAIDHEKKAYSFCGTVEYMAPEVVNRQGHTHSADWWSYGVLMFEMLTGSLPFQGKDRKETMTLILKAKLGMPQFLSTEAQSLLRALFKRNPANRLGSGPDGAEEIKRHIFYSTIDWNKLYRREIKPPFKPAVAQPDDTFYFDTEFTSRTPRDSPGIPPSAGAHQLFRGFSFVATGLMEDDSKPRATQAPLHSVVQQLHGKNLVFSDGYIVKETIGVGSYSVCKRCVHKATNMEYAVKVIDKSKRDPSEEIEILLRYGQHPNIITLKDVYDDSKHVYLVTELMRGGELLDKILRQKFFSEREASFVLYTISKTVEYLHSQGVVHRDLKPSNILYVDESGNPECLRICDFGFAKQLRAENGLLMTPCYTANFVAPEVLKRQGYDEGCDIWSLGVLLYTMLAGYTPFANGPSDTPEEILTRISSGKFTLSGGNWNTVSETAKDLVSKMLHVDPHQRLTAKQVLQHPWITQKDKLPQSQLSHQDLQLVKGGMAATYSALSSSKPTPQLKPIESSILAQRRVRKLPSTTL
UniProt P28564, sequence (whole entry, looked up): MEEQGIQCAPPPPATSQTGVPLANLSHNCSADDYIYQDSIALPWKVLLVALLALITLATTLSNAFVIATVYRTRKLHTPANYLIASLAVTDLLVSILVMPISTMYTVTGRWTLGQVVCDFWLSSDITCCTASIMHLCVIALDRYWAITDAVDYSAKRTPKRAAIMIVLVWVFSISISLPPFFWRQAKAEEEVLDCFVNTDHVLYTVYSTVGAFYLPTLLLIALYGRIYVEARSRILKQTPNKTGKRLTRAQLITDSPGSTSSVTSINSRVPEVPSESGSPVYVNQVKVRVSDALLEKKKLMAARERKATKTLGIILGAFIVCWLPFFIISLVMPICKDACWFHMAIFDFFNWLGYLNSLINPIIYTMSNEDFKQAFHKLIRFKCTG
UniProt Q9BXA6, sequence (whole entry, looked up): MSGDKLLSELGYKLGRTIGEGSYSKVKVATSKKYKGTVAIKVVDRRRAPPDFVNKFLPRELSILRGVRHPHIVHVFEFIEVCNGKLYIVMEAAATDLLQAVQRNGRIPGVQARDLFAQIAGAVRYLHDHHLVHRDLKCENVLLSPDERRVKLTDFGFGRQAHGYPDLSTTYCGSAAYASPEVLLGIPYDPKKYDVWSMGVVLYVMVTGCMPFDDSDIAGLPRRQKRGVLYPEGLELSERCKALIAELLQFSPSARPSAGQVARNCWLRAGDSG

SMILES | target | test | test system | conditions | inhibition
COc1cc(/C=C/C(=O)Oc2cc(C(F)(F)F)cc(C(F)(F)F)c2)ccc1O | SRD5A1 | enzyme activity in cells, inhibitor | HaCaT | 5 µM | 44.2%
C[Si](C)(C)C[C@H](CN)CC(=O)O | SSTR2 | ligand displacement, radioligand |  | 250 µM | 4%
CC(C)NC(=O)[C@H](CCc1ccccc1)NC(=O)[C@H](CC(=O)NCC(C)(C)C)NC(=O)CCc1ccccc1 | CTSB | enzyme activity, inhibitor |  | 100 µM | -8%
Cc1cnc2nc1Nc1cc(F)cc(c1)COC/C=C/COCc1cc(ccc1OCCN1CCCC1)N2 | JAK2 | inhibitor, Z'-LYTE kinase |  | 0.4572 nM | 7.42% and 5.59% and 12.4%
O=C(Nc1ccc(F)cc1)Nc1ccc(C2CC(c3ccc(Cl)cc3)=NN2C(=O)Nc2ccc(F)cc2)cc1 (centres unmarked) | AGER |  |  | 100 µM | 32%
Cc1cnc2nc1Nc1cccc(c1)COCc1cc(ccc1OCCN1CCOCC1)N2 | JAK2 | inhibitor, Z'-LYTE kinase |  | 0.1524 nM | 0.101% and 0.487% and 16.3%
CCn1cc(-c2cccc(C(F)(F)F)c2)c2sc(C(=N)NC3CCS(=O)(=O)CC3)cc2c1=O | BAZ2B (Homo sapiens, UniProt Q9UIF8) | binding, inhibitor, AlphaScreen |  | 1 µM | -89.6%
NC(=O)C[C@H]1CCc2sc3ncnc(O[C@H]4CC[C@H](N5CCOCC5)CC4)c3c21 | TSSK6 (Homo sapiens, UniProt Q9BXA6) | enzyme activity, inhibitor |  | 10 µM | -7%
COCC(=O)N1CCc2cc(-c3csc(NC(=O)c4cc(OC)cc(OC)c4)n3)ccc21 | nicotinic acetylcholine receptor, human | radioligand binding |  | 10 µM | 0%
CCCCCCCCCCCCNC(=S)NCCCC[C@H](NC(=O)OCc1ccccc1)C(=O)N[C@@H](Cc1c[nH]c2ccccc12)C(=O)NC(C)C | SIRT2 | enzyme activity, inhibitor |  | 100 µM | 22%
COC(=O)/C=C/c1ccc(O)c(OC)c1 | SRD5A1 | enzyme activity in cells, inhibitor | HaCaT | 50 µM | 19.9%
CC(=O)N(C)Cc1cccc(-c2cc3c(c(C(F)(F)F)c2)CCCC3N(C)C(=O)COC[C@@H]2CCNC[C@@H]2F)c1 (mixture of isomers) | Translation initiation factor eIF2B subunit beta/Translation initiation factor eIF2B subunit delta (Homo sapiens, UniProt P49770+Q9UI10) | ligand displacement, TR-FRET |  | 100 µM | 76%
Cn1ccc2cc(-n3c(=O)[nH]c4sc5c(c4c3=O)CCCC5)ccc21 | ADRA1B (Homo sapiens, UniProt P35368) | cell-free assay, radioligand |  | 10 µM | 14%
COc1cc(/C=C/C(=O)Oc2cc(C(F)(F)F)cc(C(F)(F)F)c2)ccc1OC(C)=O | SRD5A1 | enzyme activity in cells, inhibitor | HaCaT | 50 µM | 18.9%
O=C(Nc1ccc(F)cc1)Nc1ccc(C2=NNC(c3ccc(NC(=O)Nc4ccc(F)cc4)cc3)C2)cc1 (centres unmarked) | AGER |  |  | 100 µM | 91%
C/C=C/C(=O)Nc1ccc2nc(NCCCCCN(C)C)nc(NCCCCCCN(C)C)c2c1 | DNMT3B with DNMT3L | enzyme activity |  | 50 µM | -21%
O=C1c2sc(-c3ccc(N4CCC(F)C4)nc3F)nc2CCN1c1cccnc1 (centres unmarked) | Cacna1b (Rattus norvegicus, UniProt Q02294) | ligand displacement, radioligand |  | 1 µM | 1%
CN1CCN(Cc2ccc(-c3ccc(CO[C@H]4CCC[C@@H]4NC(=O)c4cc(-c5cnn(C)c5)cnc4N)cc3)cc2)CC1 | 5'-AMP-activated protein kinase catalytic subunit alpha-2, with beta2 gamma1 (PRKAA2, Homo sapiens, UniProt P54646) | SelectScreen kinase profiling |  | 0.1 µM | -3%
C[C@@H](O)[C@H](NC(=O)c1ccc(OCc2ccccc2)cc1)C(=O)N[C@@H](CCc1ccccc1)C(=O)NCc1ccccc1Cl | CTSB | enzyme activity, inhibitor |  | 100 µM | -3%
CC1Cc2ccccc2N1C(=O)CN1CCN(Cc2ccccc2)CC1 (centres unmarked) | DRD5 | radioligand binding |  | concentration not given, with: [3H]SCH23390 | 8.1%
CN(Cc1ccc(/C=C/C(=O)NO)cc1)CC12CC3CC(CC(C3)C1)C2 | human D1 receptor | antagonist radioligand binding |  | 0.05 µM | -4%
Brc1ccccc1-c1nnc(CSc2nnnn2-c2ccccc2)o1 | DRD5 | ligand displacement, radioligand |  | 10 µM | 12%
CS(=O)(=O)Nc1cccc(-c2csc3cnc(Nc4ccc(N5CCN(CCCCCOc6cccc7c6C(=O)N(C6CCC(=O)NC6=O)C7=O)CC5)cc4)nc23)c1 (centres unmarked) | FAM20B (Homo sapiens, UniProt O75063) | probe labelling, inhibitor, KiNativ chemoproteomics | MOLT-4 | 1 µM | -5.3%
CC(=O)C12NC(C)(C)CC1(C)C(=O)C1=C2c2c(c3c4n2C(C)(C)CC2=C4C4(CC(C)(C)NC(C)(C4)C2=O)CC3(C)C)C(=O)C(C)(C)N1 (single isomer, unassigned; (-)) | P2X purinoceptor 3 (P2RX3, Homo sapiens, UniProt P56373) | ion current, antagonist, whole-cell patch clamp | HEK293T | 10 µM | 7.06 ± 0.06%

SMILES | target | test | test system | conditions | inhibition
CCC(=O)N(C)c1ccc(Cl)c(Cl)c1 | Htr1b (Rattus norvegicus, UniProt P28564) | ligand displacement, radioligand |  | 10 µM | < 10%
O=C(NC1CCC1)[C@H](Cc1c[nH]c2ccccc12)NC(=O)[C@H](CCCCNC(=S)Nc1ccc(F)c(O)c1F)NS(=O)(=O)c1cccc(F)c1 | SIRT2 | enzyme activity, inhibitor |  | 30 µM | 26%
O=C(Nc1ccc(Cl)cc1)Nc1ccc(C2CC(c3ccc(Cl)cc3)=NN2C(=O)Nc2ccc(Cl)cc2)cc1 (centres unmarked) | AGER |  |  | 100 µM | 38%
Cc1ccc(N(O)/N=N/c2ccc(S(=O)(=O)Nc3nccs3)cc2)cc1 | α-glucosidase, rat intestine | enzyme activity |  | 300 µg/mL, with: 4-nitrophenyl α-D-glucopyranoside | 47.5 ± 0.01%
COc1cc2c(cc1OC)-c1cc3ccc(OC)c(OC)c3c[n+]1CC2.[Cl][Fe-]([Cl])([Cl])[Cl] | lipase | enzyme activity |  | 0.8 mM, 30 min, 37 °C | 68.2%
O=C1c2sc(-c3ccc(N4CCC(CO)CC4)nc3F)nc2CCN1c1cccnc1 | Maoa (Rattus norvegicus, UniProt P21396) | ligand displacement, radioligand |  | 1 µM | 13%
CC(C)[C@@H]1NC(=O)[C@H](Cc2ccc(O)cc2)NC(=O)[C@H](Cc2ccccc2)NC(=O)[C@H]([C@@H](C)O)NC(=O)[C@@H](Cc2ccc(O)cc2)NC(=O)CSC[C@H](C(=O)NCCOCCOCCOCCOCCOCCOCCC(N)=O)NC(=O)[C@H](C)NC(=O)[C@H](CO)NC(=O)[C@@H]2CCC[C@@H]2NC(=O)[C@H](Cc2c[nH]cn2)NC(=O)[C@H](CCCNC(=N)N)NC(=O)[C@H](Cc2ccc(O)cc2)NC(=O)[C@H]([C@@H](C)O)NC(=O)[C@H](Cc2ccccc2)NC(=O)[C@H]([C@@H](C)O)NC(=O)[C@H](Cc2ccc(O)cc2)NC(=O)[C@H](Cc2ccccc2)NC1=O | Matrilysin (MMP7, Homo sapiens, UniProt P09237) | enzyme activity, inhibitor |  | concentration not given, high-affinity phase of biphasic curve | ~65%
CCCCCCCCCCCCCCN(O)C(=O)CCCCC[C@@H]1NC(=O)[C@H]([C@@H](C)CC)NC(=O)[C@H](Cc2ccccc2C(F)(F)F)NC(=O)CCSCc2cccc(n2)CSCCCNC1=O | HDAC2 (Homo sapiens, UniProt Q92769) | enzyme activity, inhibitor, fluorogenic |  | 30 µM | 50%
Cc1cnc2nc1Nc1cccc(c1)COCCCCOCc1cc(ccc1OCCN1CCCC1)N2 | JAK2 | inhibitor, Z'-LYTE kinase |  | 1111.11 nM | 69.5% and 80.3% and 70%
CN(C)C/C=C/C(=O)Nc1ccc2nc(NCCCCCN(C)C)nc(NCCCCCCN(C)C)c2c1 | DNMT3B with DNMT3L | enzyme activity |  | 10 µM | -30%
C[Si]1(C[C@H](CN)CC(=O)O)CCCC1 | SSTR2 | ligand displacement, radioligand |  | 70 µM | 5%
O=C(Nc1ccc(F)cc1)Nc1ccc(C2=NNC(c3ccc(NC(=O)Nc4ccc(Cl)cc4)cc3)C2)cc1 (centres unmarked) | AGER |  |  | 100 µM | 90%
CCCCCCCCCCCCNC(=S)NCCCC[C@H](NC(=O)OCc1ccccc1)C(=O)N1CCC[C@H]1C(=O)N[C@@H](CCCNC(=N)N)C(N)=O | SIRT2 | enzyme activity, inhibitor |  | 100 µM | 40%
Cc1cnc2nc1Nc1cccc(c1)COC/C=C/COCc1cc(ccc1OCCN1CCOCC1)N2 | JAK2 | inhibitor, Z'-LYTE kinase |  | 3.906 nM | 76.2% and 67.3% and 74.8%
C=CC(=O)N1Cc2nc(-c3cc(-c4cc(Cl)cnc4Cl)c(F)cc3F)n(-c3ccncn3)c2C1 | PRKAA2 with beta1 gamma2 | kinome panel |  | 1 µM | 6.5%
O=C(Nc1ccc(Cl)cc1)Nc1ccc(C2=NNC(c3cccc(NC(=O)Nc4ccc(Cl)cc4)c3)C2)cc1 (centres unmarked) | AGER |  |  | 100 µM | 89%
C=CC(=O)Nc1cccc(-c2cnc3[nH]cc(C(=O)NC(C)(C)C)c3n2)c1 | TSSK2 (Homo sapiens, UniProt Q96PF2) | kinase activity |  | 0.1 µM | 6%
Cc1nc2c(F)cc(-c3nc(Nc4ccc(CNC(=O)CCCCCCC(=O)NO)cc4)ncc3F)cc2n1C(C)C | Rps6ka1 (Rattus norvegicus, UniProt Q63531) | enzyme activity, inhibitor |  | 1 µM | 64%
COc1ccc(NC(=O)/C(=C/c2ccc(Cl)cc2Cl)Sc2ccc(OC)cc2)cc1 | AGER | AGE2-BSA binding, inhibitor, competitive ELISA |  | 100 µM, 60 min, with: AGE2-BSA | 0%
O=C(CN1CCO[C@@H](COc2cccc(Cl)c2)C1)N1CCc2ccccc21 | DRD5 | radioligand binding |  | concentration not given, with: [3H]SCH23390 | 7.1%
Cc1[nH]nc2c1N=C(c1ccccc1Cl)c1cnc(N3CCOCC3)cc1N2 | NR3C1 (Homo sapiens, UniProt P04150) | cell-free assay |  | 10 µM | 93%
CCn1cc(C(=O)O)c(=O)c2c(N)c(F)c(NC3CCCCC3)cc21 | PRKAA2 with beta1 gamma2 | kinase activity |  | 0.1 µM, with: ATP at Km | 0.4%
O=C(O)Cc1ccccc1CC(=O)O | Signal transducer and activator of transcription 5A, SH2 (Homo sapiens, UniProt P42229) | ligand displacement, FP |  | 100 µM | -3%
